Experimental data pooled from the literature.
Parts stem from different laboratories: compare values within a part only.

Study 1
Target: Centromere-binding protein 1, full length, His-tagged (CBF1, Saccharomyces cerevisiae, UniProt P17106, residues 1-351)
Sequence of UniProt P17106 (whole entry, looked up): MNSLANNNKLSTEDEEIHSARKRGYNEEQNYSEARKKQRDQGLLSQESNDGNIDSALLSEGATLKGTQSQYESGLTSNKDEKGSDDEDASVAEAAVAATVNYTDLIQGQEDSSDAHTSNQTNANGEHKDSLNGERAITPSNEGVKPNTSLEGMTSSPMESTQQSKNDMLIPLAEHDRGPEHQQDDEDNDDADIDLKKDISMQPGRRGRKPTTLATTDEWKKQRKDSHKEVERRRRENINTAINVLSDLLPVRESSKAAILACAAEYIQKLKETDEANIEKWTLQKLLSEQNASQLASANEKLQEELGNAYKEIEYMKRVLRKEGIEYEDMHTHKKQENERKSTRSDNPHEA
Method: competition protein-binding microarray
Molecule type: double-stranded DNA, one strand shown
Sample: in vitro
Tested at: 2 µM
Notes: whole 60-bp probe, lowest competitor level
With: Pho4 competitor, 0.05 µM
Direction: higher = stronger binding
Shared flanks, not repeated: … GTCTTGATTCGCTTGACGCTGCTG
| Sequence | fluorescence intensity [a.u.] |
| --- | --- |
| AAATTACTAAGTTGGTGCGTGGGTGACGCCGTATGA | 68.9 |
| GAACCAAGACCGTCAAGCGTGCTTTTAAGGCTTTGA | 81.4 |
| CCGATTTTGTCCTTTAGCGTGACTCGGATTATACGC | 239 |
| TTGGGTGATGTTTTGCATGTGTGCTGCCCAAGTTGA | 92.5 |
| AAATTACTAAGTTTTCACGTGCGATACCCCGTATGA | 876 |
| CACTGGCTGCTCCATCACGGGTCTCGAGGCGGAGAC | 103 |
| TGGATTTCAACGGGAAACGTGACTCGTACAGAATTT | 949 |
| CACATCTCCCTTGCGCCCGTGCTTTTATATATATAA | 98.3 |
| CCTAACTTCTTTAGGGGCGTGGCAACTGTCGGGACT | 64.3 |
| AAAGCGGTAATTTTTCACGTGATGTCAAATATCTAT | 5610 |
| TGGATACATTGAAGCTGCGTGACGGATTGGCCTCGG | 87.7 |
| AAAGCGGTAATTTGTCACCACACTTCACATATCTAT | 105 |
| TACGTTGCTGTATTCCCCGTGGGACATTCTCCAAGT | 75.2 |
| TGGAATAACAGTTGGCATGTGCCCACTGTATTCATG | 191 |
| CAAGGGATCCTCATTCTCGTGGTCGTAGGTGGGTTG | 71.8 |
| GGAAGAAGCATCTCACGCATGGAAAACAATTGACCT | 75.7 |
| TATTGCGGTTGTTGCCACGCTTGTCGCCAGGGTTGT | 56.5 |
| TGCGAAGGCACCTGGGTCGTGCCAGTATTTGGCGCC | 52.6 |
| TTTGCAGTGTAATCTCACGTGCAAAAGACTGAGTAA | 1350 |

Study 2
Target: Histone acetyltransferase KAT6A, winged helix 1, GST fusion (KAT6A, Homo sapiens, UniProt Q92794, residues 1-85)
Method: protein binding microarray
Molecule type: double-stranded DNA, one strand shown
Sample: in vitro
Tested at: not given
Notes: 8-mer, flanks averaged, mean of 2 arrays, mostly near background
Reference: not given
Direction: higher = stronger binding
Residues (chain): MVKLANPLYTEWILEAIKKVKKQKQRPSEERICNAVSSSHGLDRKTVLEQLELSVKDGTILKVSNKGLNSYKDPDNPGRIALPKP
| Sequence | E-score |
| --- | --- |
| AGCGCACC | 0.284 |
| ATTGTTTA | -0.25 |
| CGTTAGGC | 0.217 |
| CAATTGTA | -0.0513 |
| CCCCGGCC | 0.27 |
| TAGTAGCA | -0.00941 |
| GGCACTGA | 0.0445 |
| ACCAATAC | -0.00698 |
| ACTATCCG | 0.152 |
| CACCGTCG | 0.384 |
| CGAGTAAG | 0.0701 |
| CGTTTAGA | 0.0324 |
| AAATACGG | 0.00615 |
| GTTCCAAC | -0.0577 |
| CGACGCTA | 0.343 |
| GAGCGTTA | 0.0494 |
| AATACAAA | -0.323 |
| ATAAAGCA | -0.188 |
| CGCTGACC | 0.209 |
| CCCAATGA | -0.212 |
| CTGCTCGA | -0.26 |
| ACACTGGT | -0.155 |
| AACCCGCT | 0.333 |
| GTAGCGCA | 0.287 |
| AGAAGCGA | -0.0227 |

Study 3
Target: Ras GTPase-activating protein-binding protein 1, full length (G3BP1, Homo sapiens, UniProt Q13283)
Sequence of UniProt Q13283 (whole entry, looked up): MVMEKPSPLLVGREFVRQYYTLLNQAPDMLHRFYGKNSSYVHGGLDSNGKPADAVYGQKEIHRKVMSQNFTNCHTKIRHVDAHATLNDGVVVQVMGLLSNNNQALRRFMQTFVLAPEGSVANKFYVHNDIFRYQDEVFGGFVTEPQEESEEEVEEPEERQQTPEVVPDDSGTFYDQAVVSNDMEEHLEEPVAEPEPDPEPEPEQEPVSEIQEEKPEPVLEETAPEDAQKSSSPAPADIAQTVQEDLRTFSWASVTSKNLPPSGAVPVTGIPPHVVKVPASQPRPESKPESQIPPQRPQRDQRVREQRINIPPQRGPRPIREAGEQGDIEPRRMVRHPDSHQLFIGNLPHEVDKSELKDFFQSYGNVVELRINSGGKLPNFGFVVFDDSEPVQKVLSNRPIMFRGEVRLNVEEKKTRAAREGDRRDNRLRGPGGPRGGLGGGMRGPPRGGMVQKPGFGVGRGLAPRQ
Method: RNA Bind-n-Seq
Molecule type: RNA
Sample: in vitro
Tested at: 200 nM
Notes: whole 134-nt RNA, ends assumed
With: 150 mM KCl
Reference: input library
Direction: higher = stronger binding
Shared flanks, not repeated: GGGAGUUCUACAGUCCGACGAUC … UGGAAUUCUCGGGUGUCAAGG
| Sequence | log2 enrichment |
| --- | --- |
| UCUCAGCAGGCGCAUCUACACUAGUGACCUGAGGAGAGAAACCCUAACCCCACAAUGGCUGCAUCUUCUCUGAAGACGAGACUGAUGCUC | -0.496 |
| AAGUCCUGUGCUACACAUCGUAUGUACCGAAUCGGUUUUUUUGGUGGAAAAAAAGGAAAGUAUUAUGUUACGCCGUUCGGAUCUGCACUU | -1.29 |
| UGGAGCACAGGGCGAGCUCUCCUCCGCCCUGCAGCCUCAGGUAAGGAUCCGGACCUUCACUGCUGCCCCAACUGGGGCUCCUCAGCUCGG | -0.566 |
| AAGUCCUGUGCUACACAUCGUAUGUACCGAAUCGGGAAAAAGGAAAAAGGAAAAAGGAAAGUAUUAUGUUACGCCGUUCGGAUCUGCACU | -1.05 |
| UCACCUGUUUACAGUGAAUCAGACGUCCCAAUAGAUGUGGAGACGGUCACAUCAACGCCUAUGCCACUCUAUGACAAUCAGAAGGCACGC | -1.26 |
| UGAAGCGAGAAGCUGCCCUACCCCCAGUGAGCCCCCUGAAGGCGGCUCUCUCUGAGGAGGAGUUAGAGAAGAAAUCCAAGGCUAUCAUUG | -0.684 |
| UCAAGUCCUGUGCUACACAUCGUAUGUACCGAAUCGGGGAAGGAAGGGGAAGGGGAAAGUAUUAUGUUACGCCGUUCGGAUCUGCACUUC | 0.741 |
| CCUGUGCUACACAUCGUAUGUACCGAAUCGGGGUUUUUGGGGAAAGGGGUUUUUUUGGGGAAAGUAUUAUGUUACGCCGUUCGGAUCUGC | 0.227 |
| CACAGACAACACGCACCCACACAGACACAGAGGGCAGGGGUUGGGAUGGGGACAGGGUGCACAGCAGGGCGGGGUAGGACCCCAGCCCCU | 1.87 |

Study 4
Target: TAR DNA-binding protein 43, full length, His tag (TARDBP, Homo sapiens, UniProt Q13148, residues 1-414)
Method: RNA Bind-n-Seq
Molecule type: RNA
Sample: in vitro
Tested at: 20 nM
Notes: 6-mer, flanks averaged, single round
With: 150 mM LiCl
Reference: input library
Direction: higher = stronger binding
| Sequence | 6-mer enrichment (R) |
| --- | --- |
| UAGCUU | 0.912 |
| UUGCCA | 0.951 |
| CCAGAC | 0.833 |
| CACAUC | 0.845 |
| AAAGGA | 0.85 |
| UGAGAU | 0.972 |
| GGAGCC | 1.02 |
| AUCAUC | 0.808 |
| AACGGC | 0.851 |
| UUGGGC | 1.06 |
| AAUCUC | 0.831 |
| UUAUUA | 1.13 |
| GGAUGC | 1.05 |
| CAGAGG | 0.983 |
| CCAUCU | 0.903 |
| CCUACG | 0.857 |
| AACCGG | 0.85 |
| CUAUUA | 0.949 |

For quick reference, copied from above (study 4):
| Sequence | 6-mer enrichment (R) |
| --- | --- |
| AAUCUC | 0.831 |
| UUAUUA | 1.13 |
| GGAUGC | 1.05 |
| CAGAGG | 0.983 |
| CCAUCU | 0.903 |
| CCUACG | 0.857 |
| AACCGG | 0.85 |
